Results gathered from unrelated publications.
Numbered parts are unrelated; each lists some results of a single study. Changes are numbered by the printed parent chain.

Series 1
Target: ABI1, truncated, D143A, DHFR fusion (Arabidopsis thaliana)
Technique: DHFR PCA, deep sequencing
Matrix: yeast
Notes: methotrexate growth selection, single substitutions
With: (+)-ABA 4.8 µM
Relative to: wild-type fitted maximum
Reading: higher = stronger binding
Starting sequence: PYL1, truncated, DHFR fusion (Arabidopsis thaliana); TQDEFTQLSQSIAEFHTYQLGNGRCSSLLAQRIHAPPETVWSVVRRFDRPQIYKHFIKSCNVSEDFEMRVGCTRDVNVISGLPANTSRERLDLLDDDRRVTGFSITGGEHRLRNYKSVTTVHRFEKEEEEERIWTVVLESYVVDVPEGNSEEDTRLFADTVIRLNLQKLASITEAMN
Variant	relative binding score [%]
Q51A	17.5
E14I	26.3
D3S	65.9
H110K	-0.246
P146E	-0.49
T120Y	1.59
R74W	4.38
E152D	73.7

Series 2
Target: CCNB2, cyclin fold, Cln2 fusion (human)
Technique: yeast growth competition, sequencing
Matrix: yeast
Notes: strong parent motif
Relative to: not given
Reading: higher = stronger binding
Starting sequence: MICAL3 docking peptide (human); LQLRRQLSFSEDS
Variant	normalised enrichment score
LQLRRCLSFSEDS [Q6C]	3.44
LQLRRKLSFSEDS [Q6K]	4.51
LQLLRQLSFSEDS [R4L]	-0.0257
LQLRRQLSFSECS [D12C]	3.6
LQLRQQLSFSEDS [R5Q]	0.414
LQLRHQLSFSEDS [R5H]	0.0382
LQLRRQLRFSEDS [S8R]	1.32
LQLRNQLSFSEDS [R5N]	0.4
LQLRRQLSFSQDS [E11Q]	1.96
LQLERQLSFSEDS [R4E]	0.739
LQLRRQLSFNEDS [S10N]	2.88
LQLRRQLSFSVDS [E11V]	1.55
LQLRRQQSFSEDS [L7Q]	0.043
LFLRRQLSFSEDS [Q2F]	2.21
LQLRYQLSFSEDS [R5Y]	0.326

Series 3
Target: Cyclic AMP-dependent transcription factor ATF-1 (ATF1, Homo sapiens, UniProt P18846, residues 1-271, full length assumed)
Technique: protein-binding microarray
Molecule type: double-stranded DNA, one strand shown
Matrix: in vitro
Concentration: not given
Notes: k-mer, scored over probes, only values ≥0.25
Reading: higher = stronger binding
Construct (chain): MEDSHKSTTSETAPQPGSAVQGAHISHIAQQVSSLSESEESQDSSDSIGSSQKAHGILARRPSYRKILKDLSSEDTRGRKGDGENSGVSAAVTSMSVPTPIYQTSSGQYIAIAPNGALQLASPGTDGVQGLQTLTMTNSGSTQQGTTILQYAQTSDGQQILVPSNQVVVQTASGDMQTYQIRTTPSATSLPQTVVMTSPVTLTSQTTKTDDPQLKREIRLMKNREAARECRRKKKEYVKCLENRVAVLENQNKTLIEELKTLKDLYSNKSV
Strand	E-score
ACGTAGA	0.414
TAACGTA	0.334
CCCCTCC	0.337
CGTGGTA	0.278
CATCATC	0.281
CATTACG	0.307
ATGACAA	0.275
TACATCA	0.276

Single results of other studies
Substance	target	test	system	setting	scale	measurement	value
PhoQ, residues 284 288 289 292 302 303 AGGCYF	PhoP, residues 12 14 15 18 19 VHSCL (Escherichia coli, UniProt P23836)	Sort-seq, item: YFP reporter	E. coli	PhoQ-PhoP variant library, with: 10 µM Mg2+	relative to: high Mg2+ state, higher = stronger signaling	fold induction	2.58

For quick reference, copied from above (series 2):
Variant	normalised enrichment score
LQLERQLSFSEDS [R4E]	0.739
LQLRRQLSFNEDS [S10N]	2.88
LQLRRQLSFSVDS [E11V]	1.55
